Values quoted from earlier work, collected from citations in different studies.
Protocols differ between the studies behind these lines. ± gives the spread as reported. In brackets after ≈: the same amount, converted by molar mass.
TRPM channel TRPM_PZQ: TRPM channel TRPM_PZQ (Schistosoma mansoni, UniProt A0A5K4F0X5)
Chain of UniProt O15244 (whole entry, looked up): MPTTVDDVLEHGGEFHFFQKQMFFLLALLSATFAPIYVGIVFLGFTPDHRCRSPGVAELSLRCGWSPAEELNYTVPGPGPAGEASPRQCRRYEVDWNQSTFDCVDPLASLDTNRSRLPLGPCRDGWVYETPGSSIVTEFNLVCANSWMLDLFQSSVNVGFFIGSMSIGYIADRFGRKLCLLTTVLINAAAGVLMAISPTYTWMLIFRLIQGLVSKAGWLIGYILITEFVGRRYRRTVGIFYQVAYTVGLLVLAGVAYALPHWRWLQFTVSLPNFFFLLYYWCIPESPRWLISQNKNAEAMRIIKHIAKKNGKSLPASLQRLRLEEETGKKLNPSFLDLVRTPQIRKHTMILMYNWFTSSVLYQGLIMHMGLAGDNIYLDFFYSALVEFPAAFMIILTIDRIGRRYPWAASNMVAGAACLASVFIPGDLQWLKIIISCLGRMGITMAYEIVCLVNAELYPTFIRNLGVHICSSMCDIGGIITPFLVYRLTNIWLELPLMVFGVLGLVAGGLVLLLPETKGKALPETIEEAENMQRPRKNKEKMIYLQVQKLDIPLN
Chain of UniProt Q9Y2C9 (whole entry, looked up): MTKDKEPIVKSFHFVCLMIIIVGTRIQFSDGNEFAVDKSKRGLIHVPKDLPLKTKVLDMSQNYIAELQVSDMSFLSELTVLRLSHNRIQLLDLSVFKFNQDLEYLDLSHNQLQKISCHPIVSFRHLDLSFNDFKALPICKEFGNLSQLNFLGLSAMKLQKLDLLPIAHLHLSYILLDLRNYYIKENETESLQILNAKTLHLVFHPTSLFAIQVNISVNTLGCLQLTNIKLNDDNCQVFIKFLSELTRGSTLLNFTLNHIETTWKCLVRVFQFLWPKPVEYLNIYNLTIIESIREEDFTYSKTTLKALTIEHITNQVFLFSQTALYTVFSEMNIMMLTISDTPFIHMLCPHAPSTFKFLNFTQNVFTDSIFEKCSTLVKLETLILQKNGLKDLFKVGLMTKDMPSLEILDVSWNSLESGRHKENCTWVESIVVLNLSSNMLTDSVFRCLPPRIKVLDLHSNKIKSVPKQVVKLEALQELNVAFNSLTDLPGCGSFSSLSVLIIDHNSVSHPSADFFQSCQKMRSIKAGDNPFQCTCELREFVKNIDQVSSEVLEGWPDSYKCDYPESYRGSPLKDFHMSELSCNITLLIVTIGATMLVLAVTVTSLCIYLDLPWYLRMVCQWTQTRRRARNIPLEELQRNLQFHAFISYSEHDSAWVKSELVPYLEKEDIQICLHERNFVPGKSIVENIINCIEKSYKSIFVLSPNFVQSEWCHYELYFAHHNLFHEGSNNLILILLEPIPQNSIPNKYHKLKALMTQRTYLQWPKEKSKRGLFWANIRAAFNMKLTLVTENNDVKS
Chain of UniProt Q9BWU1 (whole entry, looked up): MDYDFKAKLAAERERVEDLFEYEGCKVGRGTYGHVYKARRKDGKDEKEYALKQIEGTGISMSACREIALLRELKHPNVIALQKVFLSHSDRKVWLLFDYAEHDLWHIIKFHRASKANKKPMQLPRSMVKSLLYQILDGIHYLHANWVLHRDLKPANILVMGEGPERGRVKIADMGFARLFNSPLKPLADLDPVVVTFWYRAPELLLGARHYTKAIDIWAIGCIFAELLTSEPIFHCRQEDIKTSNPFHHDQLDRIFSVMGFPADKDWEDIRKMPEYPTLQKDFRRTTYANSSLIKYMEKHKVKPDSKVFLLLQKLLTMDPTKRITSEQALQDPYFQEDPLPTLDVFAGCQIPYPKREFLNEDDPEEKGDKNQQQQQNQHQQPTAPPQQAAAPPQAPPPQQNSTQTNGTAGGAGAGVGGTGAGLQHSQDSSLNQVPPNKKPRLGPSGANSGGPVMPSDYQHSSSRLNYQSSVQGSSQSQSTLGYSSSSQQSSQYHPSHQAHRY
Chain of UniProt P10632 (whole entry, looked up): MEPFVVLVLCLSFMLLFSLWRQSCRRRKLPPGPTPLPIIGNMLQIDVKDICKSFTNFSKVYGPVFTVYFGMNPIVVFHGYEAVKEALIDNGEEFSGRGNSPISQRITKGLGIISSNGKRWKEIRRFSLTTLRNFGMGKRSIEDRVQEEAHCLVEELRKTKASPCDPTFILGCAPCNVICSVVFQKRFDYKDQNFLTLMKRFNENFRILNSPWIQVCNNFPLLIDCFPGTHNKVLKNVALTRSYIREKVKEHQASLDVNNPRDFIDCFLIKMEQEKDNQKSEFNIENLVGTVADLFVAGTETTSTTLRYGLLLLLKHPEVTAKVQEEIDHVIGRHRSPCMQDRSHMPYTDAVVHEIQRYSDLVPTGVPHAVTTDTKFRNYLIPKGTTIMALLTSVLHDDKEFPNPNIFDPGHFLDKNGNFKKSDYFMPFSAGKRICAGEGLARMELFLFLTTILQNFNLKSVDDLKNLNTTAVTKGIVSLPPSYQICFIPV
Chain of UniProt O60603 (whole entry, looked up): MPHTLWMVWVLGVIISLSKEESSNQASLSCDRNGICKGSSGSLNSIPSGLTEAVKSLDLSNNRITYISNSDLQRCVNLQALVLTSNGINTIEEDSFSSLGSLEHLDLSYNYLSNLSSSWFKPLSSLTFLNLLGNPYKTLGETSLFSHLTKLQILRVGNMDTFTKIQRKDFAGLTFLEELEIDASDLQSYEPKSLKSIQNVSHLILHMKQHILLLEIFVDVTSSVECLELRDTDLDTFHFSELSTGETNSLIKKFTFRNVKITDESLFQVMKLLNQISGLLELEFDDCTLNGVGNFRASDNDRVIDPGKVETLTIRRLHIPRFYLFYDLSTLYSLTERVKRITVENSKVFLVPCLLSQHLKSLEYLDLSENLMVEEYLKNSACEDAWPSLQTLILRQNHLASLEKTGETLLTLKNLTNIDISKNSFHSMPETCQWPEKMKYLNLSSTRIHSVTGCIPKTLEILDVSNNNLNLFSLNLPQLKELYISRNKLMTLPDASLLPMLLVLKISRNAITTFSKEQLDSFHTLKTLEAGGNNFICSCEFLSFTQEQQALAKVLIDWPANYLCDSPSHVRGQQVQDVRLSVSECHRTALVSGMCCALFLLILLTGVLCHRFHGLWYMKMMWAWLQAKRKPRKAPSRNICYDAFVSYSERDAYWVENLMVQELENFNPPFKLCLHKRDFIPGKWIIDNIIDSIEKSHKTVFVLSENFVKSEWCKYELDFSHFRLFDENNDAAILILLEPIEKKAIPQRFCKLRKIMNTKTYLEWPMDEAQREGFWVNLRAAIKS
Chain of UniProt P11712 (whole entry, looked up): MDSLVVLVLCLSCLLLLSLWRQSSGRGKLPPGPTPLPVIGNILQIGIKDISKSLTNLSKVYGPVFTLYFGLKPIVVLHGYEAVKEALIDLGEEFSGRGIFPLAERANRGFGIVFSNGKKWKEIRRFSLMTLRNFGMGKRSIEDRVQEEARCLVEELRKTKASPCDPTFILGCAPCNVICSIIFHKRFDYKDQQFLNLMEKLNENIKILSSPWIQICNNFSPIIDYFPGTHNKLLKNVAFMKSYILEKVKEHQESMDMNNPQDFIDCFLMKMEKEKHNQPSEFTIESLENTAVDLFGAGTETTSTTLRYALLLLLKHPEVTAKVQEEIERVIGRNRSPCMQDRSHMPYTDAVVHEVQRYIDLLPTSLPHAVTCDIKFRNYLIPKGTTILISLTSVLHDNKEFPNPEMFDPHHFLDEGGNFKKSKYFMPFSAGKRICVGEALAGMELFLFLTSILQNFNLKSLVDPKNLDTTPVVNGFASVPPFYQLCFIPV

SMILES	tested on	assay	system	conditions	how to read	measurement	result
CN(C)Cc1ccccc1Sc1ccc(I)cc1CO	serotonin transporter	–	–	–	–	Ki	0.09 nM
Nc1cc(C(F)(F)F)c(-c2nc(N3CCOCC3)nc(N3CCOCC3)n2)cn1	CDK19 (Homo sapiens, UniProt Q9BWU1)	enzyme activity	–	10 µM	baseline: untreated	remaining activity	70%
CCCCCCCCCCCCCCCC(=O)OCC(CSC[C@H](N)C(=O)N[C@@H](CO)C(=O)OC)OC(=O)CCCCCCCCCCCCCCC (stereo partly drawn)	TLR2/TLR6 (Homo sapiens, UniProt O60603+Q9Y2C9)	agonist	–	literature value	–	EC50	0.4 nM
CC(C)=CCc1cc2c(cc1O)O[C@H](c1ccc(O)cc1)CC2=O	estrogen receptor beta	agonist	–	–	–	EC50	680 nM
O=C(C1CCC(F)(F)CC1)N1CC(=O)N2CCc3ccccc3[C@@H]2C1	TRPM channel TRPM_PZQ	–	–	–	–	EC50	2500 ± 700 nM
CN/C(=N/CCSCc1nc[nH]c1C)NC#N	SLC22A2 (Homo sapiens, UniProt O15244)	inhibitor	–	–	–	Ki	124000 nM
O=C(C1CCSCC1)N1CC(=O)N2CCc3ccccc3[C@@H]2C1	TRPM channel TRPM_PZQ	–	–	–	–	EC50	300 ± 10 nM
CNC(C)C1CCC(N)C(OC2C(N)CC(N)C(OC3OCC(C)(O)C(NC)C3O)C2O)O1 (stereo not drawn)	Enterobacter cloacae	–	clinical isolate RKI-No_308/13	–	–	MIC	2 µg/mL (≈ 4.19 µM)
CO[C@H]1/C=C/O[C@@]2(C)Oc3c(C)c(O)c4c(O)c(c(/C=N/N5CCN(C)CC5)c(O)c4c3C2=O)NC(=O)/C(C)=C\C=C\[C@H](C)[C@H](O)[C@@H](C)[C@@H](O)[C@@H](C)[C@H](OC(C)=O)[C@@H]1C	Cytochrome P450 2C8 (CYP2C8, Homo sapiens, UniProt P10632)	enzyme induction	–	–	–	EC50	340 nM
CN(C)Cc1ccccc1Oc1ccc(I)cc1CO	serotonin transporter	–	–	–	–	Ki	0.12 nM
CC1(C)S[C@@H]2[C@H](NC(=O)[C@H](N)c3ccccc3)C(=O)N2[C@H]1C(=O)O	Escherichia coli	–	clinical isolate RKI-No_317/16	–	–	MIC	> 16 µg/mL
C=CC(=O)N1CCC[C@@H]1Cn1c(NC(=O)c2ccc(C(F)F)s2)nc2cc(CN[C@@H](C)C(C)(C)C)ccc21	RLK (TXK)	covalent inhibitor	–	–	–	kinact/KI	460000 M⁻¹ s⁻¹
O=C(O)CC(=O)C(=O)O	Thermoplasma acidophilum citrate synthase	fluorescence titration	–	20 °C, unliganded enzyme	–	Kd	1300 nM
C#CCOc1ccccc1CCCCCC(=O)NS(C)(=O)=O	Cytochrome P450 2C9 (CYP2C9, Homo sapiens, UniProt P11712)	inhibitor	–	–	–	IC50	11000 nM
O=C(O)CCCOc1ccc(F)cc1-c1cc(-c2ccccc2C(F)(F)F)n(-c2ccccc2)n1	FABP3	binding	–	–	–	Kd	24 nM
O=C[C@H](OC(=O)c1cc(O)c(O)c(O)c1)[C@@H](OC(=O)c1cc(O)c(O)c(O)c1)[C@H](OC(=O)c1cc(O)c(O)c(O)c1)[C@H](O)COC(=O)c1cc(O)c(O)c(O)c1	tyrosinase	inhibitor	–	–	–	IC50	54000 nM
CC(=O)N[C@@H](CC(N)=O)C(=O)N[C@@H](CC(C)C)C(=O)N[C@]1(C)CCCCCCC=CCCC[C@@](C)(C(=O)N[C@@H](CCC(=O)O)C(=O)N[C@@H](CC(C)C)C(=O)N[C@@H](CC(N)=O)C(N)=O)NC(=O)[C@H](CC(C)C)NC(=O)[C@H](CC(C)C)NC(=O)[C@H](CCCNC(=N)N)NC(=O)[C@H](CC(=O)O)NC(=O)[C@H](CC(C)C)NC(=O)[C@H](CCC(=O)O)NC1=O	FAK-paxillin interaction	protein-protein interaction disruption, inhibitor	–	–	–	Ki	5800 nM
OC(Cn1cncn1)(Cn1cncn1)c1ccc(F)cc1F	aromatase (CYP19A1)	–	–	–	–	IC50	~26800 nM
CC(=O)N[C@H](C(=O)N[C@H](C(=O)N[C@@H](Cc1ccccc1)C(=O)N[C@H](C(=O)N[C@@H](CO)C(=O)N[C@@H](Cc1c[nH]c2ccccc12)C(=O)N[C@@H](CCC(=O)O)C(=O)N[C@@H](CCC(=O)O)C(=O)N[C@@H](Cc1ccc(O)cc1)C(=O)N[C@@H](CC(C)C)C(=O)N[C@@H](CC(=O)O)C(=O)N[C@@H](Cc1c[nH]c2ccccc12)C(=O)N[C@H](C(N)=O)C(C)C)[C@@H](C)O)C(C)C)[C@@H](C)O	PCSK9	–	–	–	–	Kd	660 ± 11 nM
COc1ccc(-c2cc(=O)c3c(O)cc(O)cc3o2)cc1	tyrosinase	inhibitor	–	–	–	IC50	779000 nM
Cc1oncc1C(=O)Nc1ccc(C(F)(F)F)cc1	CAR (constitutive androstane receptor)	receptor activation, agonist, Tox21 HTS	–	–	–	AC50	770 nM

Repeated from above:
SMILES	tested on	assay	system	conditions	how to read	measurement	result
CC(=O)N[C@H](C(=O)N[C@H](C(=O)N[C@@H](Cc1ccccc1)C(=O)N[C@H](C(=O)N[C@@H](CO)C(=O)N[C@@H](Cc1c[nH]c2ccccc12)C(=O)N[C@@H](CCC(=O)O)C(=O)N[C@@H](CCC(=O)O)C(=O)N[C@@H](Cc1ccc(O)cc1)C(=O)N[C@@H](CC(C)C)C(=O)N[C@@H](CC(=O)O)C(=O)N[C@@H](Cc1c[nH]c2ccccc12)C(=O)N[C@H](C(N)=O)C(C)C)[C@@H](C)O)C(C)C)[C@@H](C)O	PCSK9	–	–	–	–	Kd	660 ± 11 nM
COc1ccc(-c2cc(=O)c3c(O)cc(O)cc3o2)cc1	tyrosinase	inhibitor	–	–	–	IC50	779000 nM
